Measured values pooled from the literature.
± marks the error that the study gave.
ESR1: Estrogen receptor (ESR1, Homo sapiens, UniProt P03372)

Chains of the proteins cited; added tags and fusions are not shown. Residues count along the entry.
UniProt P03372, whole entry: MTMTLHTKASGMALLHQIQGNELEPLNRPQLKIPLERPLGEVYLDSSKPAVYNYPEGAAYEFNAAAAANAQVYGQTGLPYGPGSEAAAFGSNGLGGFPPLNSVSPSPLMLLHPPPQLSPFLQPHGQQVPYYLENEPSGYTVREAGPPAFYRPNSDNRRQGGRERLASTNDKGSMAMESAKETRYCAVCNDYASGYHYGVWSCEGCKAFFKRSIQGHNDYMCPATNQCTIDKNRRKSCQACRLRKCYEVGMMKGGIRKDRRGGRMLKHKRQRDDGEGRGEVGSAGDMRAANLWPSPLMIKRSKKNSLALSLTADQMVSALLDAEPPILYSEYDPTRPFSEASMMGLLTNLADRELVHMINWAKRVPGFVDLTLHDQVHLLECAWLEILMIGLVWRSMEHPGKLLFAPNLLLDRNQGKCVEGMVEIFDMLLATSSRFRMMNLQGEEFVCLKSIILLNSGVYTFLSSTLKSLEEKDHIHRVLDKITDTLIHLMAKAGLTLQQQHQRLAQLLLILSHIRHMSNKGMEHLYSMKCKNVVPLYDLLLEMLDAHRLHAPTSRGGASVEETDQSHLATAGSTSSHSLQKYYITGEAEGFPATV
UniProt P31424, 21-1203 limits assumed: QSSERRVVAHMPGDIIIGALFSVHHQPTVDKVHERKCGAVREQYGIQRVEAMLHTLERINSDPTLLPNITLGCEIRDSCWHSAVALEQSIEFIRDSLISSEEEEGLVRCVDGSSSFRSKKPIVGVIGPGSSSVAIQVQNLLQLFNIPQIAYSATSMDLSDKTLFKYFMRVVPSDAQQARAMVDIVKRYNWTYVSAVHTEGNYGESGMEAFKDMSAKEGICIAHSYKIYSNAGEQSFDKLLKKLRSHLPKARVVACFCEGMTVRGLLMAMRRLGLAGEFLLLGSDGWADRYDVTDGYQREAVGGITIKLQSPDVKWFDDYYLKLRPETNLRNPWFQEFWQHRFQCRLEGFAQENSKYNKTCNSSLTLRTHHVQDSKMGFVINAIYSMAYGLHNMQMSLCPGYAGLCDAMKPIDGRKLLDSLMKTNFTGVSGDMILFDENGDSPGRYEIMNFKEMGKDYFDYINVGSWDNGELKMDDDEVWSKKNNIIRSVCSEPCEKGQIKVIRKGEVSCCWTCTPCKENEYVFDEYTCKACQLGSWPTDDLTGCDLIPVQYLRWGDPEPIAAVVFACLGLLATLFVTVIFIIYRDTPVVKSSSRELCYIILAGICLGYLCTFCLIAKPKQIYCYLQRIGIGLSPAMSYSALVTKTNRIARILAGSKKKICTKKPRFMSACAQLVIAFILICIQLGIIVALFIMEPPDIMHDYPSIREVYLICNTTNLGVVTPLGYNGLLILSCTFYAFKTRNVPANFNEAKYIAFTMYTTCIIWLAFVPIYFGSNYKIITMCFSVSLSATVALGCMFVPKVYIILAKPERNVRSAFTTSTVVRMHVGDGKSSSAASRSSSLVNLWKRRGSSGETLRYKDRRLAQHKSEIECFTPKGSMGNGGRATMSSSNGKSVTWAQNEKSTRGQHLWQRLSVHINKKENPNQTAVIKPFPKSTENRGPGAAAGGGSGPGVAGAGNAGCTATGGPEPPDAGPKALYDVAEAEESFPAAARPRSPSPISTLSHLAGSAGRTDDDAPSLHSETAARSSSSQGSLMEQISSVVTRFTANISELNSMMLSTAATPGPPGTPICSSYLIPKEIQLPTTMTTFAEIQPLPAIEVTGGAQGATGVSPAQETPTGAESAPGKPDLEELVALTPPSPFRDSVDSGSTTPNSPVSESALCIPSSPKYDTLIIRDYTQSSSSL
UniProt Q00960, 27-1482 limits assumed: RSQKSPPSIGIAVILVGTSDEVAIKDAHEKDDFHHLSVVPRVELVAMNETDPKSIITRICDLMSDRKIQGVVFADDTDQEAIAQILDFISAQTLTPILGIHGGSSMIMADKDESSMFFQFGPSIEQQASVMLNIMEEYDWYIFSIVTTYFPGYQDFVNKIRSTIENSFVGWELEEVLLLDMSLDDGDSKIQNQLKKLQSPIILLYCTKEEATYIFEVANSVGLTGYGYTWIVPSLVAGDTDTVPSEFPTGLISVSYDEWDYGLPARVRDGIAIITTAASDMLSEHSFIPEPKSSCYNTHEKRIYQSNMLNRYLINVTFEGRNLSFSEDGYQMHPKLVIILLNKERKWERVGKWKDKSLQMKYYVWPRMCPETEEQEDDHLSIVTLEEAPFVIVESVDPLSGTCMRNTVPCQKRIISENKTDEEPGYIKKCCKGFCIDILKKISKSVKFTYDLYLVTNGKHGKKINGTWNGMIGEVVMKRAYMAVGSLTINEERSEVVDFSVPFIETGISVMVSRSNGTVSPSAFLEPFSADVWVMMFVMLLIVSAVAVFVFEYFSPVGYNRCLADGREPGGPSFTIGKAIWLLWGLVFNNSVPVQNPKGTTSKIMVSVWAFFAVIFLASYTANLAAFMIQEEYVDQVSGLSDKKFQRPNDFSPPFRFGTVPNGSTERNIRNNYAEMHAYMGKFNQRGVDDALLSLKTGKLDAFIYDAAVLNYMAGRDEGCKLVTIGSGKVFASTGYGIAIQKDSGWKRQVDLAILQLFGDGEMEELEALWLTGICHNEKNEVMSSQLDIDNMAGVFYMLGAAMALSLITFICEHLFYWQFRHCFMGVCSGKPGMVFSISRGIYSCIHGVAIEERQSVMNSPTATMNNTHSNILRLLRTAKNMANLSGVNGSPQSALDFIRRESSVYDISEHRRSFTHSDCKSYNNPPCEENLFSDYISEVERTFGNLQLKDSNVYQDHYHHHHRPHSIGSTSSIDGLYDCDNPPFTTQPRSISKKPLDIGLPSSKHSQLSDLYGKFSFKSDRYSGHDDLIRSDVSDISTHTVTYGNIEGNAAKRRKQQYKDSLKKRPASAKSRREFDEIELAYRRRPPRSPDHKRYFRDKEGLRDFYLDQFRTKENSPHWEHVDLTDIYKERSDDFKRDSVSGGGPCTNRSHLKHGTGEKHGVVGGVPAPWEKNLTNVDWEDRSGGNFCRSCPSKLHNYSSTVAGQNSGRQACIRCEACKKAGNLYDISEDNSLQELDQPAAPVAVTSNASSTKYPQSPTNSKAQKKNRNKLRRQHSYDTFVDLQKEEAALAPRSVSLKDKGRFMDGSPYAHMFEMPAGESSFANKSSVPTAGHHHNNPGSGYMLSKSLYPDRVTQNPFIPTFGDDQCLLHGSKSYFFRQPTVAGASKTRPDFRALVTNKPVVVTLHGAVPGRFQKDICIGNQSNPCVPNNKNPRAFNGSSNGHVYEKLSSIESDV
UniProt Q99685, whole entry: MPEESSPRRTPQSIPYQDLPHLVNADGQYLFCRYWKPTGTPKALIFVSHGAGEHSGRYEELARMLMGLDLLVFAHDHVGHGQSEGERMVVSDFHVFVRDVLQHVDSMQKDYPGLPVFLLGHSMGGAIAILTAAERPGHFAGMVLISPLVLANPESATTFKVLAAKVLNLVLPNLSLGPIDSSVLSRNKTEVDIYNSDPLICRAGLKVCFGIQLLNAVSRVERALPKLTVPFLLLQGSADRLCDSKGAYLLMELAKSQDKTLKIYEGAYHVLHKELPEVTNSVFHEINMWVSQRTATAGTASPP
UniProt P41247, whole entry: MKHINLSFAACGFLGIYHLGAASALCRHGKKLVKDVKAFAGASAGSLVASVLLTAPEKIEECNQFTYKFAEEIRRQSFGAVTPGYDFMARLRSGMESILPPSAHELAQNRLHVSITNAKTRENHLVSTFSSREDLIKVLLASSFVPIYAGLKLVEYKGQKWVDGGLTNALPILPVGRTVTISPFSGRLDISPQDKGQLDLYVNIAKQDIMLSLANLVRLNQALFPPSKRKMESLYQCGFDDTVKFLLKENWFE
UniProt Q9NRX4, whole entry: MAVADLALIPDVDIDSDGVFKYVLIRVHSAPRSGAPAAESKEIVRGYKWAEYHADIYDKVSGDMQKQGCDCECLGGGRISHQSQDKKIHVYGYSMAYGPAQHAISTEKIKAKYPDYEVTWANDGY
UniProt Q8N6T7, whole entry: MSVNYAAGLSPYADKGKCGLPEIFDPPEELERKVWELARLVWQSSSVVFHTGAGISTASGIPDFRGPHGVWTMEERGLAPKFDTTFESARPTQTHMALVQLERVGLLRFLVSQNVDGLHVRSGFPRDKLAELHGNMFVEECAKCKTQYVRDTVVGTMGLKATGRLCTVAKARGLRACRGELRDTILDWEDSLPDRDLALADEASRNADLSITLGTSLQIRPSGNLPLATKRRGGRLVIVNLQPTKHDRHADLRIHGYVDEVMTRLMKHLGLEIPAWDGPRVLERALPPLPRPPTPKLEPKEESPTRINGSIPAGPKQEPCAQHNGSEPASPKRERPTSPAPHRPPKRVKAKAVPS
UniProt A0A381MCS3, 1-451: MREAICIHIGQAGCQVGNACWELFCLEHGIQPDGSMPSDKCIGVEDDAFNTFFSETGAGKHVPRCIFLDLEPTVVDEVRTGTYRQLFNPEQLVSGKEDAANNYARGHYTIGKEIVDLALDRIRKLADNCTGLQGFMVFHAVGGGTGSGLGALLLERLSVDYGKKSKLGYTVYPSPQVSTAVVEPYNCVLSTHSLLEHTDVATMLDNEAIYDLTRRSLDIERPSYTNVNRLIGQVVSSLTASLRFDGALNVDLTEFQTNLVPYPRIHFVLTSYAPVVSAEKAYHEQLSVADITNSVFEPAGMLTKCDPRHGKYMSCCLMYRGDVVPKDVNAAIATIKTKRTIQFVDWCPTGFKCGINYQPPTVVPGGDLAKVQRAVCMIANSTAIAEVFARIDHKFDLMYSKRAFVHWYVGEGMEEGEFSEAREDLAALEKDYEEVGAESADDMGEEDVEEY
UniProt A4HTR0, 1-443: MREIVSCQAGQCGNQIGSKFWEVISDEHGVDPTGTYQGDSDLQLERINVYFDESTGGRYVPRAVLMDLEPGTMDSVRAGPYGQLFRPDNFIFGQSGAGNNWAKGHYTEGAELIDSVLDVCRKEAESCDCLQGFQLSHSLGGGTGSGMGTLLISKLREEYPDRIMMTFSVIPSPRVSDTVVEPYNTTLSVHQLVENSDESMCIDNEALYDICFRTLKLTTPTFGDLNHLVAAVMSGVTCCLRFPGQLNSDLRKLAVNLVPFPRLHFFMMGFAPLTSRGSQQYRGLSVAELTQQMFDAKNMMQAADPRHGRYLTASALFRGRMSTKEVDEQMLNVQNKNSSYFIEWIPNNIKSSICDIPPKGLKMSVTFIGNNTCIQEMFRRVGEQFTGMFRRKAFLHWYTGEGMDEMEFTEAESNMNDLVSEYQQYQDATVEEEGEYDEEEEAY
UniProt P31749, whole entry: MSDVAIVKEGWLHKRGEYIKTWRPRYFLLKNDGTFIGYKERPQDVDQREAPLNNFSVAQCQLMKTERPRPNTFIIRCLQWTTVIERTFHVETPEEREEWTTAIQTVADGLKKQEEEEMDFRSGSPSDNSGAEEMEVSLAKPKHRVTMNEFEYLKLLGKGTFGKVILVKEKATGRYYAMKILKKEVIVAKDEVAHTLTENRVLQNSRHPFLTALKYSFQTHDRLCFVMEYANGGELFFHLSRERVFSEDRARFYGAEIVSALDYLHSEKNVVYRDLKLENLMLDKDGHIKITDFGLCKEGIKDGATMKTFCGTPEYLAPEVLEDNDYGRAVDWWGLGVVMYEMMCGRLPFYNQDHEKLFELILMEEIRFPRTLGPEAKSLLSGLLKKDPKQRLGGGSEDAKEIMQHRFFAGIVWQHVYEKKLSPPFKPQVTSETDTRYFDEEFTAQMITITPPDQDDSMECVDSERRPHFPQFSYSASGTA
UniProt P31421, 19-872 limits assumed: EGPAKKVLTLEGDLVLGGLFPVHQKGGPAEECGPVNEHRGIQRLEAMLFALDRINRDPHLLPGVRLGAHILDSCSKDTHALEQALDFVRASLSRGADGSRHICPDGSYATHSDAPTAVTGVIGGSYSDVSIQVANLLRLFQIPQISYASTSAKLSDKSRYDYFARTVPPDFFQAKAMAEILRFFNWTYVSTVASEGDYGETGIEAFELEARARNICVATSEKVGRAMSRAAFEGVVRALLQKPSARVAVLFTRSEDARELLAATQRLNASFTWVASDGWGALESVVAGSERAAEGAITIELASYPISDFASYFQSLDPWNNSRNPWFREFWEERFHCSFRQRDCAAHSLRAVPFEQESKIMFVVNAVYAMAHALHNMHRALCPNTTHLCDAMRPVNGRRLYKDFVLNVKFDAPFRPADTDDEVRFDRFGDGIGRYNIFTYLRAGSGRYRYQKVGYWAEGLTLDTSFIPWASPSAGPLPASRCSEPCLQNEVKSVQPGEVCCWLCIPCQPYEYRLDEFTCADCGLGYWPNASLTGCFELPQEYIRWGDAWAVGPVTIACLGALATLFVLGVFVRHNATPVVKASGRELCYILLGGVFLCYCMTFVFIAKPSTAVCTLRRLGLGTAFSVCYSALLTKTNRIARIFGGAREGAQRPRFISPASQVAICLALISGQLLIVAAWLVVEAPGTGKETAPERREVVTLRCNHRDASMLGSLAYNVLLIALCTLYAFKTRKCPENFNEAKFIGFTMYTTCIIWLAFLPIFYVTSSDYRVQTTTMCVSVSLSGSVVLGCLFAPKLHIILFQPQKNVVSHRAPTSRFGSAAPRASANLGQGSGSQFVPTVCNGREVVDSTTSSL

`N#Cc1cnc(Nc2nc3ccccc3o2)nc1-c1cccc(Cl)c1` has an IC50 of 2.83 ± 1.32 µM (Metabotropic glutamate receptor 5 (Grm5, Rattus norvegicus, UniProt P31424); calcium mobilization, negative allosteric modulator; added: glutamate EC80).
For `C[C@H](NC(=O)c1cc(C(=O)O)cc([C@H]2CCN[C@@H]2C(=O)O)c1)C(=O)O`, the IC50 was 7.17 ± 0.17 µM (Glutamate receptor ionotropic, NMDA 2B, with GluN1 (Grin2b, Rattus norvegicus, UniProt Q00960); ion current, antagonist, two-electrode voltage clamp; Xenopus oocytes; GluN1/GluN2B, added: glycine 100 µM and glutamate 1 µM).
The IC50 of `O=[N+]([O-])c1ccc(/C=C/c2c[nH]c3ccc(F)cc23)c(F)c1` is reported as 5 µM (Amyloid-beta precursor protein, amyloid-beta peptide (APP, Homo sapiens, UniProt P05067); Aβ42 oligomerisation, ELISA).
`COc1ccc(C(=O)Nc2ccc(-c3nc4ccccc4s3)cc2)cc1` gave an IC50 of greater than 100 µM (Moesin, with CD44 (Homo sapiens, UniProt P26038); MSN-CD44 interaction, inhibitor, TR-FRET; added: CD44).
`N#Cc1cccc(OC(=O)N2CC(OC(c3ccccc3)c3ccccc3)C2)c1` has an IC50 of 0.059 ± 0.0026 µM (Monoglyceride lipase (MGLL, Homo sapiens, UniProt Q99685); inhibitor, fluorescence; added: AHMMCE substrate).
`CCCCC[C@@H](O)c1c(C(=O)C[C@@H](C)CC(=O)O)c2cc(Cl)ccc2n1C` gave an IC50 of greater than 10 µM (Oxoeicosanoid receptor 1 (OXER1, Homo sapiens, UniProt Q8TDS5); calcium mobilization, antagonist; human neutrophils; added: 5-oxo-ETE 10 nM).
`CN1CCC[C@@H]1C(=O)N[C@@H](Cc1ccccc1)B(O)O` has an IC50 of greater than 10 µM (20S proteasome, β1 subunit (Plasmodium falciparum, UniProt Q8I0U7+Q8I6T3); enzyme activity, inhibitor; added: Ac-nLPnLD-AMC).
`CCC(C)N1c2ccccc2C(=O)Nc2cnc(Nc3ccc(C(=O)N4CCC(N5CCN(C)CC5)CC4)cc3OC)nc21` (stereo not shown) gave an IC50 of 1.59 ± 0.37 µM (Leucine-rich repeat serine/threonine-protein kinase 2 (LRRK2, Homo sapiens, UniProt Q5S007); kinase activity, Adapta).
`C=Cc1cccc(-c2cc(=O)c3c(O)cc(O)c([C@H]4CCN(C)C[C@H]4O)c3o2)c1` gave an IC50 of 0.13 µM (Cyclin-dependent kinase 2, part with cyclin A (CDK2, Homo sapiens, UniProt P24941); enzyme activity, inhibitor; with cyclin A, added: histone H1 substrate).
`CN(C(=O)CSc1nnc(Nc2ccccc2F)s1)c1ccccc1` has an IC50 of 45.2 µM (CD28, with CD80 (Homo sapiens, UniProt P10747); CD28–CD80 binding, inhibitor, competitive ELISA; added: biotinylated CD80).
With `COc1ccc(SCC(=O)Nc2ccc3nc(SCC(=O)NC(C)C)sc3c2)cc1` the IC50 was greater than 50 µM (ESR1; reporter gene, antagonist; HEC-1 transfected ERα luciferase reporter).
`COc1ccc2c(c1)S(=O)(=O)N(CCCCCc1ccccc1)C(=O)O2` gave an IC50 of 1.8 µM (Patatin-like phospholipase domain-containing protein 4 (PNPLA4, Homo sapiens, UniProt P41247); enzyme activity, inhibitor, gel-based ABPP; membrane fraction of overexpressing HEK cells).
For `O=Cc1c(O)c2c(c3c1CC(O)OC3=O)CCC2` (stereo not shown), the IC50 was 3.4 ± 0.7 µM (14 kDa phosphohistidine phosphatase (Homo sapiens, UniProt Q9NRX4); added: DiFMUP substrate).
`CC(C)CNC(=O)CSc1nc2ccc(NC(=O)CSc3cc(Cl)ccc3Cl)cc2s1` has an IC50 of 9.1 µM (ESR1; reporter gene, antagonist; HEC-1 transfected ERα luciferase reporter).
For `NC(=O)c1ccc(C(=O)NOCc2ccc(Sc3ccccc3F)c(C(F)(F)F)c2)cc1`, the IC50 was 1.59 ± 0.05 µM (NAD-dependent protein deacylase sirtuin-6 (SIRT6, Homo sapiens, UniProt Q8N6T7); deacetylase activity, inhibitor, fluorogenic; added: RHKK-ac-AMC).
`COc1cc([C@@H]2c3cc4c(cc3[C@@H](C=C(C)C)[C@H]3COC(=O)[C@H]23)OCO4)cc(OC)c1OC` has an IC50 of 4.1 ± 0.1 µM (Tubulin alpha/beta heterodimer (Leishmania infantum, UniProt A0A381MCS3+A4HTR0); tubulin polymerization, inhibitor; 37 °C, added: tubulin 1.2 mg/mL).
With `Clc1ccc(C2(c3ccc(-c4ccnc5ccccc45)cc3)CCNCC2)cc1` the IC50 was 0.59 µM (RAC-alpha serine/threonine-protein kinase (AKT1, Homo sapiens, UniProt P31749); kinase activity, inhibitor, radiometric HotSpot; added: ATP 10 µM).
With `c1cncc(-c2ccc(-c3cccnc3)nc2)c1` the IC50 was 36 µM (ALK tyrosine kinase receptor (ALK, Homo sapiens, UniProt Q9UM73); ELISA).
`NC(=O)c1cn(-c2ccc(F)cc2)c2ccc(OCc3cccnc3)cc2c1=O` gave an IC50 of 0.895 µM (Metabotropic glutamate receptor 2 (Grm2, Rattus norvegicus, UniProt P31421); calcium mobilization, negative allosteric modulator).

Some of these lines once more:
For `O=Cc1c(O)c2c(c3c1CC(O)OC3=O)CCC2` (stereo not shown), the IC50 was 3.4 ± 0.7 µM (14 kDa phosphohistidine phosphatase (Homo sapiens, UniProt Q9NRX4); added: DiFMUP substrate).
`CC(C)CNC(=O)CSc1nc2ccc(NC(=O)CSc3cc(Cl)ccc3Cl)cc2s1` has an IC50 of 9.1 µM (ESR1; reporter gene, antagonist; HEC-1 transfected ERα luciferase reporter).
